Results gathered from unrelated publications.
Protocols differ between the studies behind these lines.
CDK9: Cyclin-dependent kinase 9 (CDK9, Homo sapiens, UniProt P50750)
Chain of UniProt P50750 (whole entry, looked up): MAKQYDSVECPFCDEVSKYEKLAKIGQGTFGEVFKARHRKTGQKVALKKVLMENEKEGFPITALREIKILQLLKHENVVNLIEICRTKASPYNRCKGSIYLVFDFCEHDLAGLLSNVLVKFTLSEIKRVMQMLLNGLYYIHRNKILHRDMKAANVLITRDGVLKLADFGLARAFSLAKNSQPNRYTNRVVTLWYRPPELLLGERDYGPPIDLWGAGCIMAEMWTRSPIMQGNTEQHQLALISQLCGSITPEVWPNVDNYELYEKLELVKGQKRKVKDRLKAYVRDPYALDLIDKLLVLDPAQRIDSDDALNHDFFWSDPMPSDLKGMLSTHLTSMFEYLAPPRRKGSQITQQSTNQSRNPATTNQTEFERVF
CDK9 with cyclin T1: Cyclin-dependent kinase 9, with cyclin T1 (CDK9, Homo sapiens, UniProt P50750)

CC[C@@H]1[C@H](F)C(=O)N[C@@H]1COc1nccc2cc(C(N)=O)c(OC)cc12 — inhibition (CDK9; ATP-site probe binding, ActivX profiling; THP-1 cell lysate; 0.2 mM, Lys2 site): 2.5%
CN(C)C(=O)c1cc2cnc(Nc3ccc(-c4ccc5c(=O)cc(N6CCOCC6)oc5c4)cc3)nc2n1C1CCCC1 — remaining binding (CDK9; KINOMEscan binding; 1.0 µM; reference: control): 3.9%
CC(C)(C)c1cnc(CSc2cnc(NC(=O)C3CCN(C(=O)CCCCCCCN4Cc5cc6c(cc5C4)C(=O)N(C4CCC(=O)NC4=O)C6=O)CC3)s2)o1 (centres unmarked) — Dmax (CDK9; protein degradation, degrader, Western blot; TC-71; 50 nM, 24 h): > 99%
COc1ccc(-c2oc3cc(Nc4ncc5cc(C(=O)N(C)C)n(C6CCCC6)c5n4)ccc3c(=O)c2F)cc1 — selectivity ratio (CDK9 with cyclin T1; reference: IC50 CDK4/6 over IC50 CDK9): > 38 fold
c1cnc2ccc(Nc3nc(NC4CC4)c4nc[nH]c4n3)cc2c1 — remaining activity (CDK9; kinase activity, inhibitor, SelectScreen kinase profiling; 1 µM; reference: control): 77%
O=C(NC1CCC1)c1ccc2nc(-c3cccc(NS(=O)(=O)NCCN4CCCCC4)c3)cn2c1 — remaining activity (CDK9; enzyme activity; 10 µM): 100%
COc1cc(N2CCN(C)CC2)ccc1Nc1nc(N)n(C(=S)NCc2c(Cl)cccc2Cl)n1 — remaining activity (CDK9; enzyme activity; 10 µM; reference: control): 8%
Cc1cc(Nc2cc(N3CCN(C)CC3)nc(Sc3ccc(NC(=O)C4CC4)cc3)n2)[nH]n1 — remaining activity (CDK9 with cyclin T1; kinase activity, KinaseProfiler; 0.03 µM, species human; reference: control): 103%
